Results collected from several papers.
Each line is one published result; not all experiments were run side by side. Several values in a cell are separate wells, animals, samples, runs or records.
UniProt P37231, sequence (whole entry, looked up): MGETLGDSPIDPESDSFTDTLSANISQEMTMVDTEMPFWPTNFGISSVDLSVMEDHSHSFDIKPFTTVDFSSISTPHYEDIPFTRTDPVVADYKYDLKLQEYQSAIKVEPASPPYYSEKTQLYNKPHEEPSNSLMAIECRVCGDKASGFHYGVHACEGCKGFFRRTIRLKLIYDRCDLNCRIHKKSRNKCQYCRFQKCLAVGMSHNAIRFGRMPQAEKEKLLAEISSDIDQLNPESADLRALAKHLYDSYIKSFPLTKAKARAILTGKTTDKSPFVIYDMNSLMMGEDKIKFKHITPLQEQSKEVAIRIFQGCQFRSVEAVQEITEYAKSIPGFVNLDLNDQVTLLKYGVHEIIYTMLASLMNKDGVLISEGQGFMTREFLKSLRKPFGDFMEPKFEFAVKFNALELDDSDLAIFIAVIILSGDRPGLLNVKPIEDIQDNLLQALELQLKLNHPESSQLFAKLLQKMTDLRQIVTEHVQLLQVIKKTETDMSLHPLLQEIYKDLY

`Cc1cc(NC2CCN(C)CC2)ccc1-c1cc2c(N3CCC[C@H](C(=O)N4CCCC4)C3)ncnc2[nH]1` has an inhibition of 18.3% (NCI-H2228; cell growth or viability, MTT; 1 µg/mL, 72 h).
`C=CC(=O)Nc1cccc(Cn2ncc3cnc(Nc4cnn(CCOC)c4)nc32)c1` gave a binding of 2.1% (human ABL1-nonphosphorylated; KINOMEscan; 100 nM; reference: control).
For `COc1ccc(CSc2ncccn2)cc1OS(=O)(=O)c1ccc([N+](=O)[O-])cc1`, the inhibition was roughly 50% (HUVEC expressing APJ; cell migration, Transwell; concentration not given).
The inhibition of `O=C(NCc1ccc(OC(F)(F)F)cc1)[C@H]1CCCN(c2ncnc3[nH]c(-c4ccncc4)cc23)C1` is reported as 10.6% (NCI-H2228; cell growth or viability, MTT; 0.008 µg/mL, 72 h).
For `Cc1c(Cc2cccc(OC(C)(C)C(=O)O)c2)c2ccc(C(=O)N[C@@H](C)c3cccc(C(C)(C)C)c3)cc2n1CC1CCC1`, the IC50 was 6.61 nM (PPARG (Homo sapiens, UniProt P37231); ligand displacement, TR-FRET).
Under inhibition, `Cc1cc(-c2ccnc3cc(O)ccc23)ccc1O` is recorded as “inhibited” (HEK-Blue TLR8 cells; TLR8 activation; 80 nM, added: ssRNA40 2.5 µg/mL).
`Cc1c(COc2cc(OCc3cccc(C#N)c3)c(CNC(C)(CO)CO)cc2Cl)cccc1-c1cccc(OCCCCCC(=O)NO)c1` has an inhibition of 52.2% (SH-SY5Y; cell growth or viability, CCK-8; 10 µM).
For `CCc1ccc(OCc2nnc(SC3CCCC3=O)n2C(C)c2ccccc2)cc1` (stereo not shown), the inhibition was 70.5% (HEK293T; Wnt Super-TOPFlash reporter, inhibitor; 10 µM, 24 h, viability-normalized).
`Cc1cc(NC2CCN(C)CC2)ccc1-c1cc2c(N3CCC[C@H](C(=O)Nc4ccc(C(F)(F)F)cc4)C3)ncnc2[nH]1` gave an inhibition of 61.5% (NCI-H2228; cell growth or viability, MTT; 0.04 µg/mL, 72 h).
With `COc1cc(OC)c(F)c(/C=C/c2cnc3ccn(S(=O)(=O)c4cn(CCF)cn4)c3n2)c1F` the inhibition was 67.5% and 65.3% (SNU-16 (FGFR2-amplified); cell proliferation; 333.3 nM).
With `Cc1c(Cc2cccc(OC(C)(C)C(=O)O)c2)c2ccc(C(=O)N[C@@H](C)c3ccc(C4CC4)cc3)cc2n1C` the IC50 was 1190 nM (Peroxisome proliferator-activated receptor gamma, ligand-binding domain (PPARG, Homo sapiens, UniProt P37231); reporter gene, luciferase reporter; HEK293T, Gal4-PPARγ LBD).
The inhibition of `CCC(=CCc1c(O)cc2c(c1O)C(=O)CC(c1ccc(O)cc1)O2)CC` (stereo not shown) is reported as 29.8% (HeLa; cell growth or viability, MTT; 6.25 µM, 48 h).
`COC1CN([C@H]2CC[C@H]([C@@]3(C)Oc4c(Cl)cc(C(=O)NCc5c(SC)cc(C)[nH]c5=O)c(C)c4O3)CC2)C1` — result for “log2 fold change”: 1.28 (RNA-seq, measured: EPOP; human, whole blood; dose not given, 24 h; reference: pretreatment baseline).

A few entries again:
`C=CC(=O)Nc1cccc(Cn2ncc3cnc(Nc4cnn(CCOC)c4)nc32)c1` gave a binding of 2.1% (human ABL1-nonphosphorylated; KINOMEscan; 100 nM; reference: control).
